{"data": "Published values of several laboratories", "note": "Lines come from different studies, so protocols differ."}
{"SMILES": "C=CC(=O)Nc1cc(Nc2nccc(-c3cn(C)c4ccccc34)n2)c(OC)cc1N(C)CCN(C)C", "test": "refers to: AST increased", "system": "EGFR-mutant MET-altered NSCLC patients", "setting": "oral, dose not given, AE grade ≥3, all", "measurement": "incidence of treatment-related AEs", "value": "6%"}
{"SMILES": "O=C(Nc1nc2cccc(-c3ccc(CN4CCS(=O)(=O)CC4)cc3)n2n1)C1CC1", "system": "rheumatoid arthritis patients", "setting": "oral, 30 mg once daily, 4 weeks, TEAE regardless of relatedness", "measurement": "incidence of dizziness", "value": "5.9%"}
{"SMILES": "N#CCNC(=O)c1ccc(-c2ccnc(Nc3ccc(N4CCOCC4)cc3)n2)cc1", "system": "patients with myelofibrosis", "setting": "oral, 200 mg, 24 weeks, phase III trials", "measurement": "incidence of diarrhoea", "value": "22.8%"}
{"SMILES": "NC1(C(=O)N[C@@H](CCO)c2ccc(Cl)cc2)CCN(c2nc[nH]c3nccc2-3)CC1", "system": "metastatic CRPC patients", "setting": "480 mg b.i.d., grade 3 to 4, treatment-related, with: enzalutamide 160 mg daily", "measurement": "incidence of Somnolence", "value": "0%"}
{"SMILES": "C[C@@H](c1ccc2nccn2c1)n1nnc2ncc(-c3cnn(C)c3)nc21", "test": "refers to: decreased appetite", "system": "EGFR-mutant MET-altered NSCLC patients", "setting": "oral, dose not given, AE grade ≥3, all", "measurement": "incidence of treatment-related AEs", "value": "1%"}
{"SMILES": "CCO[C@H]1CCN(Cc2c(OC)cc(C)c3[nH]ccc23)[C@H](c2ccc(C(=O)O)cc2)C1", "system": "PNH patients, active haemolysis", "setting": "oral, 200 mg, treatment", "measurement": "incidence of pyrexia", "value": "0%"}
{"SMILES": "COc1ccc([C@@H](O)c2cc(-c3ncnc4cc(N5CCOCC5)ccc34)c(F)cc2Cl)nn1", "system": "locally advanced rectal cancer", "setting": "oral, 50 mg, with: capecitabine and radiotherapy", "measurement": "incidence of proctalgia TEAE", "value": "0%"}
{"SMILES": "NCCONC(=O)[C@@H]1CC[C@@H]2CN1C(=O)N2OS(=O)(=O)O", "system": "healthy Chinese male subjects", "setting": "intravenous, 2 g", "measurement": "incidence of any adverse event", "value": "62.5%"}
{"SMILES": "Cc1cc(-c2nnc(N)nc2-c2ccc(F)cc2)cc(Cl)n1", "test": "refers to: myositis, all grades", "system": "post-IO NSCLC patients", "setting": "oral, 100 mg once daily", "measurement": "incidence of AE, immune-mediated, treatment-related", "value": "0%"}
{"SMILES": "C[C@@H](N)C1CCN(S(=O)(=O)c2cccc3cnccc23)CC1", "system": "healthy volunteers", "setting": "150 mg, fed", "measurement": "incidence of mental impairment TEAE", "value": "0%"}
{"note": "For quick reference, copied from above:"}
{"SMILES": "N#CCNC(=O)c1ccc(-c2ccnc(Nc3ccc(N4CCOCC4)cc3)n2)cc1", "system": "patients with myelofibrosis", "setting": "oral, 200 mg, 24 weeks, phase III trials", "measurement": "incidence of diarrhoea", "value": "22.8%"}
